Experimental data from different studies.
Every numbered part comes from another study and shows a few of its results, in no order. Several values in a cell are separate wells, animals, samples, runs or records.
UniProt P46098, sequence (whole entry, looked up): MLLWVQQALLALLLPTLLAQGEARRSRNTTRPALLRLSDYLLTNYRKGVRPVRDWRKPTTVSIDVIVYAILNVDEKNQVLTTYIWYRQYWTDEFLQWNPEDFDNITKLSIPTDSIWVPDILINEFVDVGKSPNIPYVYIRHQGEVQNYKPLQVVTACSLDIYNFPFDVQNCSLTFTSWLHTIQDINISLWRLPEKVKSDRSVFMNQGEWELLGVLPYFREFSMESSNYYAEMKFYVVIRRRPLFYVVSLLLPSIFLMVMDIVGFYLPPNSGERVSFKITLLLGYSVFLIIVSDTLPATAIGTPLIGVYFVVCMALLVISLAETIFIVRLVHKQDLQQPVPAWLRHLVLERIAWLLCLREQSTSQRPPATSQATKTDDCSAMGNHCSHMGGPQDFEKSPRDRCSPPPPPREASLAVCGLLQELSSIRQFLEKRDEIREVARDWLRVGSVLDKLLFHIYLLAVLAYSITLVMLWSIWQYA
UniProt Q9P1W9, sequence (whole entry, looked up): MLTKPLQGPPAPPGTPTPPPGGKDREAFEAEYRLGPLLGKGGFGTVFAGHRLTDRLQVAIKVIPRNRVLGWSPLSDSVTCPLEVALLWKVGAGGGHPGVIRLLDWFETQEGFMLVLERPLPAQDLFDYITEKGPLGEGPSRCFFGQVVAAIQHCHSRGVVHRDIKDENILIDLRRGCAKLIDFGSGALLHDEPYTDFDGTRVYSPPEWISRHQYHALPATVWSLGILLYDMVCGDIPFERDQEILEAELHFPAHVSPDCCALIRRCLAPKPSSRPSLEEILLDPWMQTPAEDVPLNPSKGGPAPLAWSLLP
UniProt Q9BZL6, sequence (whole entry, looked up): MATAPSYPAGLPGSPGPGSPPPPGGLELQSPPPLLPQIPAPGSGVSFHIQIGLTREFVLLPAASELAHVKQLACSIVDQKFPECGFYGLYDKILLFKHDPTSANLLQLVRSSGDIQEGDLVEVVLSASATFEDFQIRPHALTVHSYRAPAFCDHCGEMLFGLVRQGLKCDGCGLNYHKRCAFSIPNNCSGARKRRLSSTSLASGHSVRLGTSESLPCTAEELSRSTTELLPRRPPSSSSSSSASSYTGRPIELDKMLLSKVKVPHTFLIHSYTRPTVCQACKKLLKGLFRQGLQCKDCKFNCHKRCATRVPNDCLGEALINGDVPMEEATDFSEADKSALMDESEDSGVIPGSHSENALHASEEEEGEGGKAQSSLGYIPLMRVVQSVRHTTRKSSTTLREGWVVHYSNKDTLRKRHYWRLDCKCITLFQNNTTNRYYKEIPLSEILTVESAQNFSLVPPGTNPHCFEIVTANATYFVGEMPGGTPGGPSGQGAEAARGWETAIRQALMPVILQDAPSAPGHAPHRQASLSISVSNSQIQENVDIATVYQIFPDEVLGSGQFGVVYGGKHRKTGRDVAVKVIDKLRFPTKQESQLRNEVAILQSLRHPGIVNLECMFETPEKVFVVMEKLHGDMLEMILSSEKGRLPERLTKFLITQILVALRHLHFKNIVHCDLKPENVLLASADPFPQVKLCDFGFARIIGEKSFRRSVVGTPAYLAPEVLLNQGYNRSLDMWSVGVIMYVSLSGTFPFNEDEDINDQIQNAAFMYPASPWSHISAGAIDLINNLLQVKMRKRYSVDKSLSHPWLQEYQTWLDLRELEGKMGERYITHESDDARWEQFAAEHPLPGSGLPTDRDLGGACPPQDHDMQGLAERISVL
UniProt Q13237, sequence (whole entry, looked up): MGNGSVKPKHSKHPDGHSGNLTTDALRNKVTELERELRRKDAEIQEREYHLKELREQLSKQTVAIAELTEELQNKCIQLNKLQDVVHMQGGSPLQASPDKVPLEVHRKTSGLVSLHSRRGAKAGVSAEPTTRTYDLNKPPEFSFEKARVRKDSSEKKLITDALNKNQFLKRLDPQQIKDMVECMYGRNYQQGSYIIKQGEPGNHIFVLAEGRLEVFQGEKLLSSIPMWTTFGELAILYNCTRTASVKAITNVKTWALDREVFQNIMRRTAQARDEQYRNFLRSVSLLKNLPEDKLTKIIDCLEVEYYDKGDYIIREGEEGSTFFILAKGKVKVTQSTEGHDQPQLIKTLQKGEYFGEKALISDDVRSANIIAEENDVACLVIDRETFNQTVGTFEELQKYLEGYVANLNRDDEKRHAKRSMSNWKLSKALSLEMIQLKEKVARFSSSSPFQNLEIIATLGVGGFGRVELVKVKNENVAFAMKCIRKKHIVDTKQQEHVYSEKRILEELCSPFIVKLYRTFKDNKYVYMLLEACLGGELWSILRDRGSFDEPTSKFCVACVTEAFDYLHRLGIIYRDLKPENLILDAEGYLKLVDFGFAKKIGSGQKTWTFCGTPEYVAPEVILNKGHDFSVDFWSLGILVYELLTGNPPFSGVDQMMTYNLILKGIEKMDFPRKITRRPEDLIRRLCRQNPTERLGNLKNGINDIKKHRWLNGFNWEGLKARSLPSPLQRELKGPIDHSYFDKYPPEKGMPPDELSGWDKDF
UniProt P51812, sequence (whole entry, looked up): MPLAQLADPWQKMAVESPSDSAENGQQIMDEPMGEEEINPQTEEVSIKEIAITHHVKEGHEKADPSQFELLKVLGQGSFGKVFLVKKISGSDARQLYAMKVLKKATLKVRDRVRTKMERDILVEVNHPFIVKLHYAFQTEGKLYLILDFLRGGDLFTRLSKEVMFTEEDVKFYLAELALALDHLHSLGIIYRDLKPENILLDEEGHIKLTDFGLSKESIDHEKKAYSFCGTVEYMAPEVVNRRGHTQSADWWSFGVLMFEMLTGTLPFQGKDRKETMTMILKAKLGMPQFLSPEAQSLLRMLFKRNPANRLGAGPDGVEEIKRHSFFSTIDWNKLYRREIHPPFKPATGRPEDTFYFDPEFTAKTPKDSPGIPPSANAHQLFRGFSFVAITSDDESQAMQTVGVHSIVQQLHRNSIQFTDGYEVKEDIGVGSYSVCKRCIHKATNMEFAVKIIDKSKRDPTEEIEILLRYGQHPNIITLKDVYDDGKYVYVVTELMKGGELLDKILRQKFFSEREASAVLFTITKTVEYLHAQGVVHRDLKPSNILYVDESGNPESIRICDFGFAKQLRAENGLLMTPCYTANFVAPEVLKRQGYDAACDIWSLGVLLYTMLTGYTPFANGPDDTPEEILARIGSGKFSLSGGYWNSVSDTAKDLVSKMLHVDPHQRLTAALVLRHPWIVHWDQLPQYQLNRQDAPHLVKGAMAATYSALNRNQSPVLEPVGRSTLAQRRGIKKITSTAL
UniProt Q16659, sequence (whole entry, looked up): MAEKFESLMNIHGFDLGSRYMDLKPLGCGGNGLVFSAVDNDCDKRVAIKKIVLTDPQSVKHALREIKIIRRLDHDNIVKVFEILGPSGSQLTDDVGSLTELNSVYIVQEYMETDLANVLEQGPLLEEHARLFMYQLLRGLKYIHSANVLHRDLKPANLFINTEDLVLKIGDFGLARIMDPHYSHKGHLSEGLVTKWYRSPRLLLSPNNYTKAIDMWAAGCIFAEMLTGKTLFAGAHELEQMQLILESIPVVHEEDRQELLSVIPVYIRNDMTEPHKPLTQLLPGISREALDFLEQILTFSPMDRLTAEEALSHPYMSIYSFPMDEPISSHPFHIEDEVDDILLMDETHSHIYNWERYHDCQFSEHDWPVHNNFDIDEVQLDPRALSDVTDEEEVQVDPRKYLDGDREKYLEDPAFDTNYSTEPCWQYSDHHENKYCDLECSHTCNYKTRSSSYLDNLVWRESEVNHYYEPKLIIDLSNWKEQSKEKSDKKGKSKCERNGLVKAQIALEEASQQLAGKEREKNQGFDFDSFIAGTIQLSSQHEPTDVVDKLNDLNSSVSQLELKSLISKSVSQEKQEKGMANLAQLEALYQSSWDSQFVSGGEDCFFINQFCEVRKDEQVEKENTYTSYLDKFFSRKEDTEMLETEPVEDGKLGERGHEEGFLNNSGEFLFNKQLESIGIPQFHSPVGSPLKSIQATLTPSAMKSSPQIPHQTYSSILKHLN
UniProt Q86UX6, sequence (whole entry, looked up): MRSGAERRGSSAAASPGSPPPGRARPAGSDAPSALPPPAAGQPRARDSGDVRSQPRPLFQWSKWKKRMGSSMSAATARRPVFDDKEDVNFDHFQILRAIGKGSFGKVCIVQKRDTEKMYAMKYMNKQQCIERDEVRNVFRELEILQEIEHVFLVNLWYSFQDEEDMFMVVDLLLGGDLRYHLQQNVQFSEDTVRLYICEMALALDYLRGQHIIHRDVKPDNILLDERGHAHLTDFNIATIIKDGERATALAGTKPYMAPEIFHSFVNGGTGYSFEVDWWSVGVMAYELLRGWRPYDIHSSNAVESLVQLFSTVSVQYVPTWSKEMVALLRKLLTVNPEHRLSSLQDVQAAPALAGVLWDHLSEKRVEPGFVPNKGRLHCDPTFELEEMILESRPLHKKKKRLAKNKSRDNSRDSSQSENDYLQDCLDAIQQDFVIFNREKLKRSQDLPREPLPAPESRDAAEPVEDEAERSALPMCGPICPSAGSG
UniProt Q14680, sequence (whole entry, looked up): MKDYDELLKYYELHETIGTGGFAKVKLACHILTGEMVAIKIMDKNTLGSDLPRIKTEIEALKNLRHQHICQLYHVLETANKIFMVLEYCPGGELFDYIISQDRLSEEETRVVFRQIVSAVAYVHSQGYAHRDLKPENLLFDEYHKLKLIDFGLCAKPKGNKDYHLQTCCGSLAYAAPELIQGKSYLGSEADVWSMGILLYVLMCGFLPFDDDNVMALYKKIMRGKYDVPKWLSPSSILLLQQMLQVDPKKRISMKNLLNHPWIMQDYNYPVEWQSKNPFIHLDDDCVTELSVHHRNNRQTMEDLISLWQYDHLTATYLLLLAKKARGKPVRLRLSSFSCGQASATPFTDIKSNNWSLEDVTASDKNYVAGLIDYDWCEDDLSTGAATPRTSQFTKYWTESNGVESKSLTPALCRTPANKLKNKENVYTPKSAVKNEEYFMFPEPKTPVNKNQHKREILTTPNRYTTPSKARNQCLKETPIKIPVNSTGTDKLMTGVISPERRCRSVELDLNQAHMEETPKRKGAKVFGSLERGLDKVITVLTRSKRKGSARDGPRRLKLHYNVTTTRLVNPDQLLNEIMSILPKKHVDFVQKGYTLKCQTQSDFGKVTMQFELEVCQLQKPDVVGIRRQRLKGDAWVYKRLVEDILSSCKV

Study 1
Cell line: mouse MPNST tumor cells
Technique: high-content nuclear imaging
Refers to: cell number
Tested at: 10 µM
Time: 12 h
Setting: mean of 2 replicates
Baseline: plate mean
Direction: higher = more cells
| SMILES | nuclei count |
| --- | --- |
| NC12CC3CC(CC(C3)C1)C2 | 0.591 z-score and 0.0623 z-score |
| Nc1nc2c(cnn2CCc2ccccc2)c2nc(-c3ccco3)nn12 | 0.756 z-score |
| CC[C@H]1Cn2nc(-c3ccc(Cl)cc3Cl)c3nc(C)cc(c32)N1CC1CC1 | -3.79 z-score |
| N#Cc1cnc2cnc(NCc3cccnc3)cc2c1Nc1ccc(F)c(Cl)c1 | 0.273 z-score |
| NC(=O)N1c2ccccc2CC(O)c2ccccc21 (stereo not drawn) | 1.97 z-score |
| O=[N+]([O-])c1c(Nc2cc(F)cc(Cl)c2)ccc2nonc12 | -0.876 z-score |

Study 2
Compound: CCOC(=O)c1cc2cc(-c3cc(C(=O)NCc4ccc(C(=O)O)cc4)nn3C)ccc2[nH]1
Effect on: binding
Technique: radioligand binding
Tested at: 10 µM
| target | inhibition [%] |
| --- | --- |
| HTR3A (Homo sapiens, UniProt P46098) | 34.8 |
| HTR2B (Homo sapiens, UniProt P41595) | 8.13 |
| HTR5A (Homo sapiens, UniProt P47898) | 14.8 |

Study 3
SMILES: Cc1nc(Nc2ncc(C(=O)Nc3c(C)cccc3Cl)s2)cc(N2CCN(CCO)CC2)n1
Action: inhibitor
| target | tested at | inhibition [%] |
| --- | --- | --- |
| MAPK6 (Homo sapiens, UniProt Q16659) | 10 µM | < 50 |
| MELK (Homo sapiens, UniProt Q14680) | 10 µM | < 50 |
| STK32C (Homo sapiens, UniProt Q86UX6) | 1 µM | < 50 |
| PRKG2 (Homo sapiens, UniProt Q13237) | 10 µM | < 50 |
| Ribosomal protein S6 kinase alpha-3, N-terminal kinase domain (RPS6KA3, Homo sapiens, UniProt P51812) | 10 µM | < 50 |
| PRKD2 (Homo sapiens, UniProt Q9BZL6) | 10 µM | < 50 |
| MAP3K5 (Homo sapiens, UniProt Q99683) | 10 µM | < 50 |
| PIM2 (Homo sapiens, UniProt Q9P1W9) | 10 µM | < 50 |
| ROCK2 (Homo sapiens, UniProt O75116) | 1 µM | < 50 |
| NTRK1 (Homo sapiens, UniProt P04629) | 10 µM | < 50 |

Other studies, line by line
Target: Dual serine/threonine and tyrosine protein kinase (DSTYK, Homo sapiens, UniProt Q6XUX3)
Effect on: cell-free assay
Tested at: 0.5 µM
Sequence (Q6XUX3 1-929, as in one of the studies): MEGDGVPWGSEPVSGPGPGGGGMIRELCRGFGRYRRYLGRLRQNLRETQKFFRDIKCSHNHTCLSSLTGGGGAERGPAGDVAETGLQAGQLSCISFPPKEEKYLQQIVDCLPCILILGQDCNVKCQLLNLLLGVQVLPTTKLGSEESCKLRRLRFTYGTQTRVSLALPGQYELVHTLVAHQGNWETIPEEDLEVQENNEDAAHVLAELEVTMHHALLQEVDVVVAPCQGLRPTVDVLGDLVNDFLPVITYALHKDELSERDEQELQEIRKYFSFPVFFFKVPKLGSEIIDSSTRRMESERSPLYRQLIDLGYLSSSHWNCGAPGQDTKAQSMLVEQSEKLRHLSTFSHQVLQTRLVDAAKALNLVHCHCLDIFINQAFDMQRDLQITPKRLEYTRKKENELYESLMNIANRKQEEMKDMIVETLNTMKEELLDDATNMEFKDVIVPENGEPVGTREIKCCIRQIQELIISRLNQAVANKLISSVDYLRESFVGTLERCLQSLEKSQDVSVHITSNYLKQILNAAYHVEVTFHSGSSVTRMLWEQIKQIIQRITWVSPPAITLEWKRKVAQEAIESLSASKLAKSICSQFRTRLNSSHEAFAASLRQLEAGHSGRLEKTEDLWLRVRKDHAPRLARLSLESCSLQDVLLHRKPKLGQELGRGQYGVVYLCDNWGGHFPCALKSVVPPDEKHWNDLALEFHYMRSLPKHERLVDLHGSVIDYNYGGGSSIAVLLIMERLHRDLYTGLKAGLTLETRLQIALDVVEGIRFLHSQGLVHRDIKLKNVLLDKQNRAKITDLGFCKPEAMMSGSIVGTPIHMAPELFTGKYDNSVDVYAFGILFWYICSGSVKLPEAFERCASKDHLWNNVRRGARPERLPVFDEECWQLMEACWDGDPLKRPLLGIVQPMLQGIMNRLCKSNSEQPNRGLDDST
| Structure (SMILES) | remaining signal |
| --- | --- |
| CCN(CC)CCNC(=O)c1c(C)[nH]c(/C=C2\C(=O)Nc3ccc(F)cc32)c1C | 111% |
| Cc1ccc(NC(=O)c2ccc(CN3CCN(C)CC3)cc2)cc1Nc1nc(-c2cccnc2)cs1 | 92.4% |

A few entries again (study 3):
| target | tested at | inhibition [%] |
| --- | --- | --- |
| STK32C (Homo sapiens, UniProt Q86UX6) | 1 µM | < 50 |
| PRKD2 (Homo sapiens, UniProt Q9BZL6) | 10 µM | < 50 |
| MAPK6 (Homo sapiens, UniProt Q16659) | 10 µM | < 50 |
